Published values from different studies.
± marks the error that the study gave.

Under “treatment-related adverse event incidence”, `COc1ccc(-c2c(-c3ccc(C#N)c(F)c3)nc(N3CCC(N)CC3)n(C)c2=O)cc1F` is recorded as 33% (item: Neutropenia; relapsed/refractory marginal zone lymphoma patients; oral, 60 mg, any grade, dose expansion).
For `C[C@]1(CO)Cc2ncn(-c3ccc(C#N)c(Cl)c3)c2C(=O)O1`, “subjects with drug-related TEAEs” read 28.6% (investigator-assessed; human; 20 mg single dose).
Under “heart rate change”, `C[C@H]1COCCN1c1nc(NCc2cccnc2C(F)(F)F)c2cccnc2n1` is recorded as -35.7% (anaesthetized rat; intravenous, 30 mg/kg; relative to: control).
The constipation incidence of `CO[C@H]1C[C@@H]2CC[C@@H](C)[C@@](O)(O2)C(=O)C(=O)N2CCCC[C@H]2C(=O)O[C@H]([C@H](C)C[C@@H]2CC[C@@H](OC(=O)NCCOCCOCCOCCOCCOCCOCCOCCOCCC(=O)N3CCc4cc(Cn5nc(-c6ccc7oc(N)nc7c6)c6c(N)ncnc65)ccc4C3)[C@H](OC)C2)C[C@@H](O)[C@H](C)/C=C(\C)[C@@H](O)[C@@H](OC)C(=O)[C@H](C)C[C@H](C)/C=C/C=C/C=C/1C` is reported as 0% (patients with advanced solid tumours; intravenous, 16 mg weekly, grade 3 or higher).
`CC(C)C[C@H](NC(=O)[C@H](CCCCN)NC(=O)OCC1c2ccccc2-c2ccccc21)C(=O)N[C@H](C(=O)N[C@@H](Cc1ccccc1)C(=O)N[C@@H](Cc1ccccc1)C(=O)N[C@@H](CCCCN)C(=O)NCC(=O)N[C@@H](Cc1ccccc1)C(=O)N[C@@H](C)C(=O)N[C@@H](Cc1c[nH]c2ccccc12)C(=O)N[C@@H](CC(N)=O)C(=O)N[C@H](C(=O)N[C@H]1CSSC[C@@H](C(=O)N[C@@H](Cc2c[nH]cn2)C(=O)N[C@@H](CCCNC(=N)N)C(=O)N[C@@H](CCCNC(=N)N)C(=O)N[C@@H](C)C(=O)N[C@@H](CC(N)=O)C(N)=O)NC(=O)[C@H](C(C)C)NC(=O)[C@H](CCCNC(=N)N)NC(=O)[C@H](C(C)C)NC(=O)CNC(=O)[C@H](CC(N)=O)NC(=O)[C@H](CCCNC(=N)N)NC(=O)[C@H](Cc2ccc(O)cc2)NC(=O)[C@H](C(C)C)NC1=O)C(C)C)C(C)C` — result for “blood urea nitrogen”: 10.5 ± 0.64 mmol/L (ICR mice, serum; intraductal mammary, 5 mg/kg, day 5).
Under “subjects with any TEAE”, `Cn1c(-c2ccc(C(N)=O)cc2F)nnc1C(C)(C)Oc1c(F)cc(Cl)cc1F` is recorded as 16.7% (human; oral, 3 mg, single ascending dose).
Under “sinus bradycardia incidence”, `COc1cc2c(Oc3ccc4[nH]c(C)cc4c3F)ccnc2cc1OCC1(N)CC1` is recorded as 0% (paediatric refractory sarcoma patients; 8 mg).
For `COc1ccnc(C(=O)N[C@H]2COC(=O)[C@H](Cc3ccccc3)[C@@H](OC(=O)C(C)C)[C@H](C)OC2=O)c1OCOC(=O)C(C)C`, the DT50 was 3.09 days (field soil, loam; actual, southern France).
`Clc1ccc(-c2ccccc2)cc1` gave an albumin of 3 ± 0.7 g/dL (Sprague-Dawley rats, female, serum; inhalation, 23 µg/rat, 2 h after exposure).
`CCS(=O)(=O)Nc1ccc(Oc2ccc(F)cc2F)c(-c2cn(C)c(=O)c3[nH]ccc23)c1`: “treatment-emergent adverse events” 0% (Pseudomonal sepsis leading to discontinuation; human, relapsed/refractory AML; oral, dose not given).
`NC(=O)c1cccc(-c2cc(OC(=O)NC3CCCCC3)ccc2O)c1` has an apparent clearance of 622 mL/min/kg (mouse; oral, 10 mg/kg).
For `O=C(O)CCCOc1ccc(F)cc1-c1cc(-c2ccccc2C(F)(F)F)n(-c2ccccc2)n1`, “albumin fraction of serum protein” read 52.4 ± 1.3% (Crl:CD(SD) rat, female; intravenous, 25 µg/kg, 1 days post-dose).
`C[C@H](NC(=O)c1c(C(F)F)nn(C)c1Oc1cccc(C(F)(F)F)c1)c1ccc(C(=O)O)cc1` gave a half-life of 11.1 h (human, plasma; 125 mg, cycle 1 day 8, mean).
The dermal uptake of `CC(C)(c1ccccc1)c1cc(-n2nc3ccccc3n2)c(O)c(C(C)(C)c2ccccc2)c1` is reported as 0.48 ng/kg body weight/day (exposure assessment; human, age 21-60 years, sunscreen).
Under “enzyme contribution to clearance”, `CC1(C)C(/C=C(\Cl)C(F)(F)F)C1C(=O)OC(C#N)c1cccc(Oc2ccccc2)c1` (stereo not drawn) is recorded as 0.31% (item: CYP2B6; human, age 6 months).
`CN1CCN(S(=O)(=O)c2cc([N+](=O)[O-])ccc2N(CCOS(C)(=O)=O)CCOS(C)(=O)=O)CC1` has a concentration of 800 nM (NSG mice female, plasma; intraperitoneal, 25 mg/kg, 0.75 h).
`C=CC(=O)N1CC[C@H](n2nc(C#Cc3cc(OC)cc(OC)c3)c3c(N)ncnc32)C1` — result for “adverse drug reaction incidence”: 100% (patients with advanced solid tumours; oral, dose not given, Vomiting, any grade, QD, added: ferric citrate hydrate).
`N[C@@H]1c2ccccc2OC12CCN(c1cnc3c(N4CCCc5ncccc54)n[nH]c3n1)CC2` — result for “TEAE leading to withdrawal”: 14.3% (advanced metastatic solid tumour patients; oral, 100 mg once daily).
Under “patients with ALT increased”, `CC(=O)c1c(C)c2cnc(Nc3ccc(C4CCN(CCS(C)(=O)=O)CC4)cn3)nc2n(C2CCCC2)c1=O` is recorded as 25.9% (HR+/HER2- advanced breast cancer patients; oral, dose not given, all grades,, total).
`COc1ncccc1-c1cnn2ccc(N3CCN(C(=O)OC(C)C)CC3)nc12` gave a drug concentration of 2300 nM (mouse nerve ligation model, plasma; oral, 10 mg/kg, 30 min after last dose, repeat dosing day 4).
For `CC(C)C[C@H](NC(=O)[C@H](CCC(N)=O)NC(=O)[C@H](C)NC(=O)[C@H](C)NC(=O)[C@H](CCCNC(=N)N)NC(=O)[C@H](CCCNC(=N)N)NC(=O)[C@H](CCCNC(=N)N)NC(=O)[C@H](CC(C)C)NC(=O)[C@H](Cc1c[nH]cn1)NC(=O)[C@@H](NC(=O)[C@H](CCCCN)NC(=O)[C@H](CCCNC(=N)N)NC(=O)[C@H](CCCNC(=N)N)NC(=O)[C@H](CCCNC(=N)N)NC(=O)[C@H](CCC(N)=O)NC(=O)[C@H](CCCNC(=N)N)NC(=O)[C@H](CCCNC(=N)N)NC(=O)[C@H](CCCCN)NC(=O)[C@H](CCCCN)NC(=O)[C@H](CCCNC(=N)N)NC(=O)CNC(=O)[C@@H](N)Cc1ccc(O)cc1)[C@@H](C)O)C(=O)N[C@@H](CCCCN)C(N)=O`, jump threshold read “no effect” (flinch-jump test; rat; intra-CA1 bilateral, dose not given).
`[O-][S+]1CCc2nc(N3CCC(c4ncc(Cl)cn4)CC3)nc(NC3(CO)CCC3)c21` (stereo not drawn) — result for “Bronchitis adverse events”: 10% (idiopathic pulmonary fibrosis patients; 18 mg twice daily).
Under “relative organ weight”, `O=S(=O)(Nc1ccccc1)c1ccc(NC(=S)Nc2ccccc2)cc1` is recorded as 3.36% (female mice, small intestine; oral, 5 mg/kg daily 14 days; relative to: body weight).
`CC[C@H](C)[C@@H]([C@@H](CC(=O)N1CCC[C@H]1[C@H](OC)[C@@H](C)C(=O)N[C@@H](Cc1ccccc1)C(=O)O)OC)N(C)C(=O)[C@@H](NC(=O)[C@H](C(C)C)N(C)C)C(C)C`: “exposure relative to dose” < 1.5% (item: conjugated compound-HPA; human patients, phase 1/2, plasma; dose not given, dosed as NaPi2b ADC).
`CC(C)[C@@H]1NC(=O)CNC(=O)[C@H](CC(N)=O)NC(=O)[C@H](CCCNC(=N)N)NC(=O)[C@H](Cc2ccc(O)cc2)NC(=O)[C@H](C(C)C)NC(=O)[C@@H](NC(=O)[C@@H](NC(=O)[C@H](CC(N)=O)NC(=O)[C@H](Cc2c[nH]c3ccccc23)NC(=O)[C@H](C)NC(=O)[C@H](Cc2ccccc2)NC(=O)CN)C(C)C)CSSC[C@@H](C(=O)N[C@@H](Cc2cnc[nH]2)C(=O)N[C@@H](CCCNC(=N)N)C(=O)N[C@@H](CCCNC(=N)N)C(=O)N[C@@H](C)C(=O)N[C@@H](CC(N)=O)C(N)=O)NC(=O)[C@H](C(C)C)NC(=O)[C@H](CCCNC(=N)N)NC1=O` gave a plateletcrit of 0.02 ± 0.01% (ICR mice, blood; intraperitoneal, 5 mg/kg, day 5).
Under “red cell distribution width (CV)”, `COc1ccc2nc3cc(Cl)ccc3c(Nc3cc(CN4CCCC4)c(O)c(CN4CCCC4)c3)c2n1` is recorded as 13.6% (mouse, blood; intraperitoneal, 28 mg/kg).
With `CCCC(CCC)NC(=O)c1ccc2c(c1)OCO2` the PCE/NCE ratio was 0.9 (Swiss albino CD-1 mice, male, bone marrow; intraperitoneal, 175 mg/kg, 36 h).
For `Cc1cccc(Cn2nc(C3CC3)c3c(NC(=O)c4cnc5cc(OCCN6CCN(C)CC6)ccn45)cccc32)n1`, “all-cause adverse events” read 100% (CTCAE v4.03, item: all adverse events; PD-1/PD-L1 inhibitor-refractory patients; oral, dose not given, added: pembrolizumab IV every 3 weeks).
`CCc1ccc(CC/C=C/c2ccc3c(c2)C(=O)CC3)cc1` gave a TG of 0.56 mM (Sprague-Dawley rat, male; oral, 120 mg/kg/day, 14 days).
Under “concentration at time”, `CC(C)(C)[C@H](NC(=O)[C@H](CCONC(=N)N)NC(=O)Cc1ccc(CNC(=N)N)cc1)C(=O)N[C@@H](CCONC(=N)N)C(=O)NCc1ccc(C(=N)N)cc1` is recorded as 126 ng/mL (Sprague Dawley rat, male, plasma; intraperitoneal, 2.5 mg/kg, 8 h).
For `C[C@@H](NC(=O)N1C(=O)[C@H](Cc2ccnc(N)c2)[C@H]1C(=O)O)C1CCCCC1`, “incidence of AEs leading to death” read 0% (healthy adult Chinese volunteers; continuous intravenous infusion, 0.6 mg/kg/h, 5-day infusion, CTCAE 5.0 grading).
`Cn1cc(-c2nc(N[C@@H]3CCCC[C@@H]3N)c(F)c3c2C(=O)NC3)cn1`: “hemorrhagic adverse events” 1 number of patients (item: Conjunctival haemorrhage; patients with relapsed or refractory AML; oral, dose not given, all doses).
`O=C(Nc1ccccc1)C1CCN(C(=O)Oc2cccnc2)CC1`: “change in calmness score” 17 (Bond-Lader VAS; healthy women; 100 mg; relative to: pre-dose baseline, direction not given).
